Results gathered from unrelated publications.
Lines come from different studies, so protocols differ.

Structure (SMILES) | target | test | system | conditions | inhibition
CCN(CC)CCNC(=O)c1c(C)[nH]c(/C=C2\C(=O)Nc3ccc(F)cc32)c1C | PKG1β (human) | kinase activity, inhibitor |  | 0.3 µM | 17%
Cc1ccc(C(=O)OCC(=O)[C@@H](CC(=O)O)NC(=O)[C@@H](Cc2ccccc2)NC(=O)C[C@@H](CC(C)C)NC(=O)[C@@H](CC(=O)O)NC(=O)[C@@H](Cc2cccnc2)NC(=O)CCCCCNC(=O)CCCCCNC(=O)CCCc2cn(CCF)nn2)s1 | caspase | enzyme activity | HeLa cells | 75 µM, 4 h, with: staurosporine 1 µM | no effect
CNC(=O)c1cc(Oc2ccc(NC(=O)Nc3ccc(Cl)c(C(F)(F)F)c3)cc2)ccn1 | PKG1β (human) | kinase activity, inhibitor |  | 10 µM | 6%
CCN1CCC(CCNCc2cc3cc(OC)c(OC)c(OC)c3nc2SCc2ccccc2)CC1 | electron transport chain | proton pumping, ACMA quenching | Pseudomonas aeruginosa inverted membrane vesicles | 32 µg/mL, with: NADH | 82%
CCCc1cc(C)[nH]c(=O)c1CNC(=O)c1cc(-c2ccc(N3CCN(C(C)C)CC3)nc2)cc2c1cnn2C(C)C | NET, histamine H3, sigma1, sigma2 | radioligand binding, PDSP panel |  | 10000 nM | > 50%
Cn1cc(-c2cnc3ccc(NC(=O)Nc4ccc(F)c(Br)c4)cc3n2)cn1 | TBK1 | KiNativ, measured: TBK1 Lys2 peptide | PANC-1 cell lysate | 10 µM | 4%
COc1cc2cc(CNCCN3CCN(C)CC3)c(SCc3ccccc3)nc2c(OC)c1OC | electron transport chain | proton pumping, ACMA quenching | Pseudomonas aeruginosa inverted membrane vesicles | 32 µg/mL, with: NADH | 81%
C[C@@H]1COCCN1c1cc([C@]2(O)C[C@H]3CC[C@@H](C2)O3)c2cnn(-c3cc[nH]n3)c2n1 | kinases outside PIKK family | kinase binding, KiNativ profiling | Jurkat cell lysate | 0.3 µM | < 35%
Cc1ccc(Nc2nccc(N(C)c3ccc4c(C)n(C)nc4c3)n2)cc1S(N)(=O)=O | PKG1β (human) | kinase activity, inhibitor |  | 10 µM | 26%
c1ccc(CSc2nc3ccccc3cc2CNCc2ccc(N3CCCCC3)cc2)cc1 | electron transport chain | proton pumping, ACMA quenching | Pseudomonas aeruginosa inverted membrane vesicles | 2 µg/mL, with: NADH | 20%

Repeated from above:
Structure (SMILES) | target | test | system | conditions | inhibition
CNC(=O)c1cc(Oc2ccc(NC(=O)Nc3ccc(Cl)c(C(F)(F)F)c3)cc2)ccn1 | PKG1β (human) | kinase activity, inhibitor |  | 10 µM | 6%
